Experimental data from different studies.
Parts stem from different laboratories: compare values within a part only. Changes are numbered by the printed parent chain.

Series 1 — method: DHFR PCA, deep sequencing; matrix: yeast; with: (+)-ABA 1.4 µM; baseline: wild-type fitted maximum; reading: higher = stronger binding
Target: ABI1, truncated, D143A, DHFR fusion (Arabidopsis thaliana)
Setting: methotrexate growth selection, single substitutions
Starting sequence: PYL1, truncated, DHFR fusion (Arabidopsis thaliana); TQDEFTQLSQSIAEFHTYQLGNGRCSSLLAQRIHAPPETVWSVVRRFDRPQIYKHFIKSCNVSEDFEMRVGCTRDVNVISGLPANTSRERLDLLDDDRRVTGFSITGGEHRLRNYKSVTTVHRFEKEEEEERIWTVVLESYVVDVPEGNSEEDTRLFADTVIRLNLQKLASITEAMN
`G71L`: “relative binding score” 0.853%.
`G71C`: “relative binding score” 1.41%.
`E174W`: “relative binding score” -11.2%.
`K126Y` — result for “relative binding score”: 62.8%.
For `D97E`, “relative binding score” read 78.9%.
`S11N` — result for “relative binding score”: 17.7%.
Under “relative binding score”, `S87F` is recorded as 15.8%.
Under “relative binding score”, `N22H` is recorded as 70.5%.
`T73H` — result for “relative binding score”: 51.5%.
`R46K`: “relative binding score” 9.14%.
`V100A` — result for “relative binding score”: 55.1%.
`S150P`: “relative binding score” 8.2%.
Under “relative binding score”, `I172Y` is recorded as 24.6%.
`T154Q`: “relative binding score” -14.1%.

Series 2 — target: BATF3, bZIP domain (human); method: DHFR protein complementation; matrix: yeast; baseline: wild-type JUN-FOS pair; reading: higher = stronger binding
Setting: single substitutions, most at no-binding floor
Starting sequence: JUN, bZIP domain (human); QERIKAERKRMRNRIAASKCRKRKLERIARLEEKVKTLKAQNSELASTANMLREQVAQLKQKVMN; partner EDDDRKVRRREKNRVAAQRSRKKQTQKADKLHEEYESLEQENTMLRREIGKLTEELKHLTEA
With `A49Y` the binding fitness was 0.209 natural log.
The binding fitness of `E33N` is reported as 0.117 natural log.
The binding fitness of `E44C` is reported as 0.117 natural log.
The binding fitness of `I28Q` is reported as 0.275 natural log.
`Q55E` has a binding fitness of 0.117 natural log.
With `A46T` the binding fitness was 0.262 natural log.
With `Q41M` the binding fitness was 0.167 natural log.
For `T37Y`, the binding fitness was 0.265 natural log.
`L38Y` has a binding fitness of -0.112 natural log.
`A40V` has a binding fitness of 0.298 natural log.
`V56R` gave a binding fitness of -0.0794 natural log.
With `T37H` the binding fitness was 0.325 natural log.
`A49Q` gave a binding fitness of 0.037 natural log.
With `E32M` the binding fitness was 0.115 natural log.
`R53V` has a binding fitness of -0.00141 natural log.
`E54Y` has a binding fitness of 0.193 natural log.
`S47D` has a binding fitness of 0.278 natural log.
The binding fitness of `L45K` is reported as -0.409 natural log.

Series 3 — method: universal PBM; molecule type: double-stranded DNA, one strand shown; matrix: in vitro; tested at: not given; reading: higher = stronger binding
Target: Sal-like protein 4, full length isoform B (SALL4, Homo sapiens, UniProt Q9UJQ4-2, residues 1-616)
Setting: 8-mer, flanks averaged, mean of replicates
Target sequence (chain): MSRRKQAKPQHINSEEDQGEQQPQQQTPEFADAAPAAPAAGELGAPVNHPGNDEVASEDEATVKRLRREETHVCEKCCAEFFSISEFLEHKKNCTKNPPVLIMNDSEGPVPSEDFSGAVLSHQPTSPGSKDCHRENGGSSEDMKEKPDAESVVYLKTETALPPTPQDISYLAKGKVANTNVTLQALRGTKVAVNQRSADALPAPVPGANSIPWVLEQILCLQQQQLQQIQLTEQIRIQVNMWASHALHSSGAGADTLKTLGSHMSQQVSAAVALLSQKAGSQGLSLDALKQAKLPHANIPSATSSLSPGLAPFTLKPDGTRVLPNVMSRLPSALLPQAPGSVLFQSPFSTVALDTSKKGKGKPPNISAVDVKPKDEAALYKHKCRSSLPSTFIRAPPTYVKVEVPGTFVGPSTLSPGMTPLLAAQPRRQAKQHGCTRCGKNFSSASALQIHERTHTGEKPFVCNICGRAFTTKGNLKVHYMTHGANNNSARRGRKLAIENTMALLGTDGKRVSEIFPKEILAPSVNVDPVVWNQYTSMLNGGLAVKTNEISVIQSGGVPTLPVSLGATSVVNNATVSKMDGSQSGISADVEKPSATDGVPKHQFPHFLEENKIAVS
`TGAATACA` has an E-score of 0.29.
For `GTTGTAGA`, the E-score was 0.206.
The E-score of `AGTGGATG` is reported as -0.088.
`AAAATCGT` has an E-score of 0.199.
`CAGCTAAC` has an E-score of -0.117.
`ACACACTC` has an E-score of 0.107.
`TAGGCTGA` has an E-score of -0.109.
The E-score of `CGTTAGAG` is reported as -0.0568.
The E-score of `GCCGCTAC` is reported as -0.302.
`ACCTAGCG` has an E-score of -0.0437.
For `AGGCCTAG`, the E-score was -0.143.
With `ACCAGGGC` the E-score was -0.256.
`CATCCTCG` gave an E-score of -0.118.
The E-score of `ACACCGGA` is reported as -0.207.
For `CAAGACAC`, the E-score was 0.049.
With `ATCCTAAA` the E-score was 0.028.
For `TGCCTGAA`, the E-score was -0.0126.
With `ACCCTTTC` the E-score was 0.115.
`ACTAAGCA` gave an E-score of 0.00422.
For `GTTGTGTA`, the E-score was 0.2.
`CATCGATG` has an E-score of 0.167.

Series 4 — target: CCNB2, cyclin fold, Cln2 fusion (human); method: yeast growth competition, sequencing; matrix: yeast; setting: weak parent motif; baseline: not given; reading: higher = stronger binding
Starting sequence: PKN2 docking peptide (human); VSAVQKLDFSDTM; partner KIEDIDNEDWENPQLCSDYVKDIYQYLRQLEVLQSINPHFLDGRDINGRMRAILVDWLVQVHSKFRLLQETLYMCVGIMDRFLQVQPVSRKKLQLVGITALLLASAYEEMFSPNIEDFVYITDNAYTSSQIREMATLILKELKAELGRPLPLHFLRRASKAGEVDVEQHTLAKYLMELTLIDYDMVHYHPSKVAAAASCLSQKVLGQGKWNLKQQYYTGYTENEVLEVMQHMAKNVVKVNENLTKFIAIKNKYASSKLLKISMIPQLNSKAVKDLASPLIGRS
For `VSAVQKYDFSDTM [L7Y]`, “normalised enrichment score” read -0.387.
For `VKAVQKLDFSDTM [S2K]`, “normalised enrichment score” read -0.275.
`VSAVQKLFFSDTM [D8F]`: “normalised enrichment score” -0.0974.
For `VSAVQMLDFSDTM [K6M]`, “normalised enrichment score” read -0.252.
Under “normalised enrichment score”, `TSAVQKLDFSDTM [V1T]` is recorded as 0.182.
`VSAVQKLDFSETM [D11E]` — result for “normalised enrichment score”: -0.188.
For `VSNVQKLDFSDTM [A3N]`, “normalised enrichment score” read -0.218.
`VSAVQKLDFSDPM [T12P]` — result for “normalised enrichment score”: 0.539.
For `QSAVQKLDFSDTM [V1Q]`, “normalised enrichment score” read 0.362.
`VSAVQKLDFSDTC [M13C]`: “normalised enrichment score” -0.0462.
`VSAVQKLDFSDTR [M13R]`: “normalised enrichment score” 0.381.
Under “normalised enrichment score”, `VSAVQKLDFSDTL [M13L]` is recorded as 0.23.
For `VSAVQKLDFSYTM [D11Y]`, “normalised enrichment score” read -0.243.
Under “normalised enrichment score”, `VSAVQKLDFSCTM [D11C]` is recorded as 0.0936.
`VIAVQKLDFSDTM [S2I]` — result for “normalised enrichment score”: -0.0219.
For `VSAVQKLDFSDIM [T12I]`, “normalised enrichment score” read -0.103.
`GSAVQKLDFSDTM [V1G]`: “normalised enrichment score” 0.0168.
For `VSAVQKLDFSDDM [T12D]`, “normalised enrichment score” read 0.247.
`VSAVQKLTFSDTM [D8T]`: “normalised enrichment score” -0.246.
For `VSAVQKLDFRDTM [S10R]`, “normalised enrichment score” read -0.0222.
For `VSDVQKLDFSDTM [A3D]`, “normalised enrichment score” read -1.01.
For `VSSVQKLDFSDTM [A3S]`, “normalised enrichment score” read -0.246.
For `VSAVAKADFSDTM [Q5A L7A]`, “normalised enrichment score” read 0.0297.
For `VSAVQKLDFSDVM [T12V]`, “normalised enrichment score” read 0.107.

Series 5 — method: RNA Bind-n-Seq; molecule type: RNA; matrix: in vitro; tested at: 365 nM; baseline: no-protein control; reading: higher = stronger binding
Target: RNA binding protein fox-1 homolog 2, RRM domain, GST-SBP tag (RBFOX2, Homo sapiens, UniProt O43251-10, residues 100-194)
Setting: natural RNA segment, single round, ends assumed
Residues (chain): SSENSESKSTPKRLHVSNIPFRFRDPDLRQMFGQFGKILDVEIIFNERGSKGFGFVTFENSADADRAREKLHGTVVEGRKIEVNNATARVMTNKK
`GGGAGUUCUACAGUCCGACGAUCGAAAACUACACUGCUAAGCCCUGGACUUUGCCCAACCCCUUUCUAGGACCGUUUUCUCCCUCUCUCUUGUCCCUAUGGUAAAGUUCUCCCUGGCGUCCUUCUGAAACUACUGGAAUUCUCGGGUGCCAA` — result for “RBNS enrichment (R)”: 0.611.
`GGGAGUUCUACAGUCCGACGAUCCUCACCCCGUCUGGGGUUCAGCCCCUCCUCUGCCACCUCCCCUAUCCACCCAGCCCAUUCUCUCUCCUGUCCAACCUAACCCCUUUCCUGCGGGCUUUUCCCCGGUCCCUUGGAAUUCUCGGGUGCCAA`: “RBNS enrichment (R)” 0.852.
Under “RBNS enrichment (R)”, `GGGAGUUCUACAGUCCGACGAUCUAAAUCAGAGAUUAUUCAACAGAGAGGGAGAAAGGAGGAGACAGAGGGAGGACCUGUUGUGUUCCAGCCAUUCUGGUAUUCCUUUAUGUAUCUAAUUUCAUUCAAACCUCUGGAAUUCUCGGGUGCCAA` is recorded as 0.346.
`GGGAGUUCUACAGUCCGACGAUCUUGCCUCCUUGGCUUCUACUAGAGCAAAAUCUGCUGCCAAGUCAGCCUGGUUUCUGGUUGUGUUCUUCACUCAGGCCUCCAUGGGCAACAAUGGUUUCAGGAGAACUGUUUGGAAUUCUCGGGUGCCAA`: “RBNS enrichment (R)” 0.239.
For `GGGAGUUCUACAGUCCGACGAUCUUGUGAACCCCUCCCCCCAACUUUUCAUGUUUCUUAAAGGCAUUUUGGUUUUUUAAAAUCUGUACAGCAAGAGCAACUUUUUCUGUCAAAUAAAAAUGAGAAAUGCAGGAUGGAAUUCUCGGGUGCCAA`, “RBNS enrichment (R)” read 0.553.
`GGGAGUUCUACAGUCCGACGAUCCUCUAAAAAAAUAAAAACUUAGCAAGGCAUGGUGGUGCACACCUGUAGUCCUAGCUACUCAGGAGGCUGAGGUGGAGGAUCACUUAAGCCUGAGAGGUCAAGGUUGCAAUUGGAAUUCUCGGGUGCCAA`: “RBNS enrichment (R)” 0.39.
Under “RBNS enrichment (R)”, `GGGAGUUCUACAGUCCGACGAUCAGUUCACGGGUCAGCAGUGGCAGCUCGACCCACUCGCAAACACUUCACGGAUACACCAGCAGUGUUGGGAUAGGAGCAGCCAGGCCUCAGCAGGAGGGACCAGGGCCGACUGGAAUUCUCGGGUGCCAA` is recorded as 0.472.
`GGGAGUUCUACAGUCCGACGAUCAGCCAGACCAAUAAAAAGCGUCUGUCCCACUCUGCUAAGCCUGGUUUUCUUGAGCAGAGGGAUGGAACAGAGGGUGAGAGAGGCAGUGGCCGUCUCCACCUCAGCUCCUGUGGAAUUCUCGGGUGCCAA`: “RBNS enrichment (R)” 0.376.
Under “RBNS enrichment (R)”, `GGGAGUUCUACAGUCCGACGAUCCAAGGUACAGGUUCAGUCCAGACUCUUUCCCCCUGGGACCAACAGCAGCCAGAGCAGUUAGCCAGUUAGUCCCCAGGCCUGUGGCCACAGGCGUUUCUGACCUGCUGGGCUGGAAUUCUCGGGUGCCAA` is recorded as 0.208.
`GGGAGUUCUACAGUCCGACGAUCUUUGUGAAUUUAAUGCUAUCUUGUCAAGGUACUUGCUUGUGUCUGAACUCUAGUGCACUUAUCAUUUUGUAGACCAUGUGGAAUUUAAUAAGAUACUUUUCCCCACUCCUUGGAAUUCUCGGGUGCCAA` — result for “RBNS enrichment (R)”: 0.582.
Under “RBNS enrichment (R)”, `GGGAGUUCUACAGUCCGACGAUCACAGGACAGAAGCGGCCUUUGAAGAACGACGAACUAUAACCCCCACCUCUGUUUUCCCCAUUCAUCUCCACCCCCUUCCCCCACCACUUCUAUUUAUUUAACAUCGAGGGUGGAAUUCUCGGGUGCCAA` is recorded as 1.02.
Under “RBNS enrichment (R)”, `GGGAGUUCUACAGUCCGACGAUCGAUCAUGUGUGCAGAUGUCCUGUGAGGAGGGAGCAUAAAGCACUGUGAAAAUGUAGCAUGCUGUCUAUGUGGACGCCCUAGGAUGAGUGAUGUGAAACGCUGCACUACUGUGGAAUUCUCGGGUGCCAA` is recorded as 21.9.

For quick reference, copied from above (series 1):
`G71C`: “relative binding score” 1.41%.
`E174W`: “relative binding score” -11.2%.
`K126Y` — result for “relative binding score”: 62.8%.
For `D97E`, “relative binding score” read 78.9%.
`S11N` — result for “relative binding score”: 17.7%.
Under “relative binding score”, `S87F` is recorded as 15.8%.
Under “relative binding score”, `N22H` is recorded as 70.5%.
`T73H` — result for “relative binding score”: 51.5%.
`R46K`: “relative binding score” 9.14%.
